Experimental data pooled from the literature.
Every numbered part comes from another study and shows a few of its results, in no order.

Study 1
Target: RNA binding protein fox-1 homolog 2, RRM domain, GST-SBP tag (RBFOX2, Homo sapiens, UniProt O43251-10, residues 100-194)
Method: RNA Bind-n-Seq
Molecule type: RNA
Matrix: in vitro
Concentration: 365 nM
Setting: natural RNA segment, single round, ends assumed
Relative to: no-protein control
Reading: higher = stronger binding
Construct (chain): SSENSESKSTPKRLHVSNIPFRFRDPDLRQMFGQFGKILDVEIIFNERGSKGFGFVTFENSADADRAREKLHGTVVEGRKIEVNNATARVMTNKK
Strand	RBNS enrichment (R)
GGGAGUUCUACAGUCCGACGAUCCCAGUACUCCUGCUCUCCGGUGCCACCUCACCUUCUUUGGCUUCUUCCCUCUUGCCUCCUUCUGUUCUUUCUGCUCUCCCCUCUUUUCCCUCCUCCUCACUUCCCUCUGGUGGAAUUCUCGGGUGCCAA	1.13
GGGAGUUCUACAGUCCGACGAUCAUGAAGUCGGUGUUACAUAAAAGUAGGUGAUAUGUAAGUUUUCUGAUAACAAGGUUCUAAUAGUGUUUAAAUGUACUGGUAACCUGGUUCCAAUAGUUGUGUUUGCCCAAUGGAAUUCUCGGGUGCCAA	2.38
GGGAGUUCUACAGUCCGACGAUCGUCUGCUAUUAAUGGACCAUAUUUAUUACAGUUUUUAAAUUGUACAAUCUCUGUAUUAUAGCUAUUUGUCUAACAUUACCCCACAUGUAAUAAAUAAAACAAUAUGAGCAUGGAAUUCUCGGGUGCCAA	1.02
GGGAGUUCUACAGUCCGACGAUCGACCGUCUCCUCUACGUGACCGUAUAAUGUUUUUUCUCCUCUUGUAGUCUUUAUGGUGUGUCUUUAUGACGUAAUAAGGUUCUCACGGGUUCGAUUCCUUUGUGUUUAGAUGGAAUUCUCGGGUGCCAA	0.514
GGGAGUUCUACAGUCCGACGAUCUGUUGGGAAACUGGAUUCAGUGGGAUCUACAAGGAAUGUCAUUUUUGUGCAUCCUACAGUGAGGAGUAACUGAUCAGGUGUCUAUAACAUUUUUCAUUCUCUCUGGAAACUGGAAUUCUCGGGUGCCAA	0.326
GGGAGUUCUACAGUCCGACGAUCACUUUUCCUCGUGUGUUGUUGACUCUUUAAACAUAACAGGUAUUAUUAAAAUUAACUGUUAACUGACCCAGCCCAUUCUCUCUCGUUUUGCCCUCGUUUUGCCACUGUAUUGGAAUUCUCGGGUGCCAA	1
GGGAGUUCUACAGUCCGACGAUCAUCUAAAACUAAAGCUGCCUGUGCUUGUUUGUAAAGCUUAUACUCCCAGAAUUAGCCUGAGCUGCUAAGAAUUCCUCAACCCAUUCCUCUAAGCUGAAAAGCACUCUUGUUGGAAUUCUCGGGUGCCAA	4.89
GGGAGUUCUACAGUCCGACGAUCCAGUUAUCAGUAAUUCCUGCCCAGAAGACUUUUAUUUAUUUUUUUUUAAGAUAAAAACUGCACAAAAGGGGAGUGAGAGAGACUAGUUUCCACAUCCUUCCCUCCUUUAGUGGAAUUCUCGGGUGCCAA	0.47

Study 2
Target: Sal-like protein 4, full length isoform A (SALL4, Homo sapiens, UniProt Q9UJQ4, residues 1-1053)
UniProt Q9UJQ4, sequence (whole entry, looked up): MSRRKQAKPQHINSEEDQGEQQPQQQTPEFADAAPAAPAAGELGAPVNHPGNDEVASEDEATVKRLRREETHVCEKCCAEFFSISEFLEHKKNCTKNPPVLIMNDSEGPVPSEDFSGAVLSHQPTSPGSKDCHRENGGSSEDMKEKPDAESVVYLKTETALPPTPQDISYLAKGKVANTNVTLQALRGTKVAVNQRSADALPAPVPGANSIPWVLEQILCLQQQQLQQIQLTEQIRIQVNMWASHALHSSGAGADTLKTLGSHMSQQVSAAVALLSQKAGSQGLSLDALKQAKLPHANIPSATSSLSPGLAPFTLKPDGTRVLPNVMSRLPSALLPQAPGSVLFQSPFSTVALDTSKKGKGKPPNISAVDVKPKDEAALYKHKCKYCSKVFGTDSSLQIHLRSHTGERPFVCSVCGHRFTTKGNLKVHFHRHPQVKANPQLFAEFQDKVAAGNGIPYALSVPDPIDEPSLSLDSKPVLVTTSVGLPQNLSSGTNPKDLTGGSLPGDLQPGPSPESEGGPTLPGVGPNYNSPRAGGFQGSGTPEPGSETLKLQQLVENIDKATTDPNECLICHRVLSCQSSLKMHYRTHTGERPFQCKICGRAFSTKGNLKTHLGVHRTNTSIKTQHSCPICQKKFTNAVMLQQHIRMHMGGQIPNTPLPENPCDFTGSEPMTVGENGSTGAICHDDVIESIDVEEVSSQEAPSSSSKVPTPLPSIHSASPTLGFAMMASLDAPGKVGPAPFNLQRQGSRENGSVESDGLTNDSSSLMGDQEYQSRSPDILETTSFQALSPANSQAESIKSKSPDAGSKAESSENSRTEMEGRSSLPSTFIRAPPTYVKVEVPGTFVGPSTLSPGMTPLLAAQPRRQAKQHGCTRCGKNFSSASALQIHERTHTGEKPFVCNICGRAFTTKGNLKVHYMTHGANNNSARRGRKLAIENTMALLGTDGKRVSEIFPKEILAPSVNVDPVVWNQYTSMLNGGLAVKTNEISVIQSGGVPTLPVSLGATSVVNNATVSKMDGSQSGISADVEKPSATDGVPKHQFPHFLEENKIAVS
Method: universal PBM
Molecule type: double-stranded DNA, one strand shown
Matrix: in vitro
Concentration: 600 nM
Setting: 8-mer, flanks averaged, mean of replicates
Reading: higher = stronger binding
Strand	E-score
AAAACAAT	0.29
CTTAGGTC	-0.144
TCAATACA	0.261
CAGACACC	-0.153
CACAGAAG	-0.075
ATAGCACC	0.128
ATGATGCG	0.0478
GTCCGCGA	-0.178
TAAATAGA	0.107
ATAAAACC	0.168
GTCACCGA	-0.282
CAATGTCG	-0.0131
CAATTAGA	0.143
CCGGGATC	-0.327
ACCACCCG	-0.339
TAAGGGCA	-0.0743
ATCTTACG	0.136
GGCTTTTA	0.0247
GCTCTTCA	-0.163
GCTGGACA	-0.152
CCCGAAGC	-0.19
GACCCCCA	-0.34
ACCCCCAC	-0.259
CGATGGTA	-0.0333
CAGGTCCG	-0.337

Study 3
Target: Ras GTPase-activating protein-binding protein 1, full length (G3BP1, Homo sapiens, UniProt Q13283)
UniProt Q13283, sequence (whole entry, looked up): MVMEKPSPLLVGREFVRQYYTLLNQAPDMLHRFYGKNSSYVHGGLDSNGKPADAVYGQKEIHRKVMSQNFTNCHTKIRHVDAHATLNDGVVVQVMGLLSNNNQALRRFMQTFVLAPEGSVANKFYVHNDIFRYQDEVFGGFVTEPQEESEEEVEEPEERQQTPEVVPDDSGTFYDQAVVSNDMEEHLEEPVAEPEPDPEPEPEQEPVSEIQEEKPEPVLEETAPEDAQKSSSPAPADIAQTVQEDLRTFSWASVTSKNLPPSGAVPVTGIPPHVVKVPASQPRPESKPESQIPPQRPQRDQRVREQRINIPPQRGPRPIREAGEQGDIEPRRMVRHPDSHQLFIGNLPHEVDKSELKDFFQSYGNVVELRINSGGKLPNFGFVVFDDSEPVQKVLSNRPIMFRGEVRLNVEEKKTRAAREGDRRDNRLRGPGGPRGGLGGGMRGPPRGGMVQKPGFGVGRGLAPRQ
Method: RNA Bind-n-Seq
Molecule type: RNA
Matrix: in vitro
Concentration: 200 nM
Setting: whole 134-nt RNA, ends assumed
Added: 150 mM KCl
Relative to: input library
Reading: higher = stronger binding
Strand	log2 enrichment
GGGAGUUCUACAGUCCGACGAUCUUUCUUCCCCCACAGUUCAUCCAUGAGCUCGGAUUUCCCACAUUACAACUUCAGGAUGCCUAAUAUUGGAUUCCAGAAUCUGCCUCUCAAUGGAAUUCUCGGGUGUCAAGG	1.12
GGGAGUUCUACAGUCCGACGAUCCCUCAAGUCCUGUGCUACACAUCGUAUGUACCGAAUCGGGAGGGAGGGAGGGAAAGUAUUAUGUUACGCCGUUCGGAUCUGCACUUCCAGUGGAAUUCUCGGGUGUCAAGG	1.47
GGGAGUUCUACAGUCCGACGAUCCAAGUCCUGUGCUACACAUCGUAUGUACCGAAUCGGGCCCCGGCCCCGGCCCCGGGAAAGUAUUAUGUUACGCCGUUCGGAUCUGCACUUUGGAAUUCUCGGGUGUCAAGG	-0.812
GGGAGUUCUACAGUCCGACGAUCAAGUCCUGUGCUACACAUCGUAUGUACCGAAUCGGGGAGGGGUUUUUGGGGUGGGGAAAGUAUUAUGUUACGCCGUUCGGAUCUGCACUUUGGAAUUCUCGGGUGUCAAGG	0.546
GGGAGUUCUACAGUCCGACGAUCCUUUGUAAUGGGAACUGCCUCUUUCCUGUUGUUGUUAAUGAAAAUGUCAGAAACCAGUUAUGUGAAUGAUCUCUCUGAAUCCUAAGGGCUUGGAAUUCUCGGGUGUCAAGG	-0.162
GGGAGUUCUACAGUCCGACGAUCACCAUGCAGGUGGGCAUCUUUGGGAAGUGGGGCAAGGGGGGGAUAGGGAGGGGGGUAACACUUUGGGAACAGGUGGUCCUAGGUCGUUUCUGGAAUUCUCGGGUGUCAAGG	1.42
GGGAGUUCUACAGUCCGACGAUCUGGGAGGUGGAUUUUGUUUAUUUUUUUAGCACAUUUCCAGGGGUGGGAAUUUUUUUUUAAUAUGUGUCAUGAAUAAAGUUGUUUUUGAAAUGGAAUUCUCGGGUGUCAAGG	0.128
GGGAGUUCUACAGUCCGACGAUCAAGUCCUGUGCUACACAUCGUAUGUACCGAAUCGGUUUUUGGUUUUUGGUUUUUGGAAAGUAUUAUGUUACGCCGUUCGGAUCUGCACUUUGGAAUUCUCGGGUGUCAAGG	-1.45
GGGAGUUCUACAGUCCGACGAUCUAACUUUAGAGGAGGAUCUGAUGGAUAUGGCAGUGGACGUGGAUUUGGGGAUGGCUAUAAUGGGUAUGGAGGGGGACCUGGAGGUGGCAAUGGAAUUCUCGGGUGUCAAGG	0.738

Study 4
Target: Histone acetyltransferase KAT6A, winged helix 1, GST fusion (KAT6A, Homo sapiens, UniProt Q92794, residues 1-85)
Method: protein binding microarray
Molecule type: double-stranded DNA, one strand shown
Matrix: in vitro
Concentration: not given
Setting: 8-mer, flanks averaged, mean of 2 arrays, mostly near background
Relative to: not given
Reading: higher = stronger binding
Residues (chain): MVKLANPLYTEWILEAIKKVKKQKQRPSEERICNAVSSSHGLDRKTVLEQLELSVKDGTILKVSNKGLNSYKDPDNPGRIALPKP
Strand	E-score
CACACAAG	-0.275
GATAAAAC	0.0523
AGAACTAT	-0.0569
GATTCGTA	-0.0184
CGCCGCAC	0.427
AGGCTACA	-0.188
CAAGGACA	-0.175
CGATGACA	0.0157
AATTCTAA	-0.0427
CGTCCGGA	0.0944
GTTGTTTA	-0.19
AGTTCCCG	0.313
ACTAGATC	-0.197
ATGTGAAT	-0.133
AAGGGACC	-0.00525
GATCGACA	-0.0946
ACTCCAGC	-0.123
AGCCCAAC	-0.187
ATGTACCC	0.0719
AATAAGGG	-0.213
CGACCATA	0.0467
GGCACATA	0.107
AGCGCCAC	0.266
CACTTCCC	-0.0283
CCCGCGTC	0.316

For quick reference, copied from above (study 3):
Strand	log2 enrichment
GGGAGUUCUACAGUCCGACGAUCUUUCUUCCCCCACAGUUCAUCCAUGAGCUCGGAUUUCCCACAUUACAACUUCAGGAUGCCUAAUAUUGGAUUCCAGAAUCUGCCUCUCAAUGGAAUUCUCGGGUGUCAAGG	1.12
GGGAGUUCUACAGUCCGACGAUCAAGUCCUGUGCUACACAUCGUAUGUACCGAAUCGGUUUUUGGUUUUUGGUUUUUGGAAAGUAUUAUGUUACGCCGUUCGGAUCUGCACUUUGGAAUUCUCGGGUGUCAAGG	-1.45
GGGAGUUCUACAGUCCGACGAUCUGGGAGGUGGAUUUUGUUUAUUUUUUUAGCACAUUUCCAGGGGUGGGAAUUUUUUUUUAAUAUGUGUCAUGAAUAAAGUUGUUUUUGAAAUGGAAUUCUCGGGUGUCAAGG	0.128
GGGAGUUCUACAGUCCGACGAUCACCAUGCAGGUGGGCAUCUUUGGGAAGUGGGGCAAGGGGGGGAUAGGGAGGGGGGUAACACUUUGGGAACAGGUGGUCCUAGGUCGUUUCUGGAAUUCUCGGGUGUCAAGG	1.42
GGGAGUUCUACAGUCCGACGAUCCAAGUCCUGUGCUACACAUCGUAUGUACCGAAUCGGGCCCCGGCCCCGGCCCCGGGAAAGUAUUAUGUUACGCCGUUCGGAUCUGCACUUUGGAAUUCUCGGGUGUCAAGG	-0.812
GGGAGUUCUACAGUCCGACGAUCUAACUUUAGAGGAGGAUCUGAUGGAUAUGGCAGUGGACGUGGAUUUGGGGAUGGCUAUAAUGGGUAUGGAGGGGGACCUGGAGGUGGCAAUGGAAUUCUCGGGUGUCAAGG	0.738
